Assay results gathered from unrelated publications.
Protocols differ between the studies behind these lines. Values joined by “and” are separate records of one study, mostly repeats; a detail may differ. ± gives the spread as reported.

| SMILES | cell line | test | conditions | IC50 |
| --- | --- | --- | --- | --- |
| O=C(CSc1cccc[n+]1[O-])c1ccccc1Br | HCC4017 | cell growth or viability, MTS | 96 h | 33.5 µM |
| N=C(N/N=C/c1cccs1)N/N=C/c1cccs1 | IMR-90 | cell growth or viability, crystal violet | 72 h | 47.9 µM |
| COc1cc2c(cc1C(C)=O)CCC1C(C)(C)c3nc(C)ncc3C[C@]21C (mixture of isomers) | TM3 | cell growth or viability, SRB | 24 h | > 100 µM |
| COc1c(C)c(OS(=O)(=O)c2ccccc2)c(C)c(O)c1C(=O)/C=C/c1ccccc1 | KKU-M213 | cell growth or viability, SRB | 72 h | 23.8 µM |
| COc1cc2c(NC3CCN(C(C)C)CC3)nc(N3CCC(F)(F)CC3)nc2cc1OCCCN1CCCC1 | 22Rv1 | cell growth or viability, CCK-8 | 7 days | > 10 µM |
| CN1CCCC1CCO/N=C1/C=C2CCC3C(CC[C@]4(C)/C(=C/c5ccccn5)CCC34)[C@@]2(C)CC1 (some centres unmarked) | G-361 | cell growth or viability, resazurin | 72 h | 13.6 µM |
| Oc1ccc(-c2csc(Cc3ccccc3)n2)c(O)c1 | LNCaP | cell growth | 72 h | no inhibition |
| CCCc1cc2cc(-n3nc(C)c4c3CC(C)(C)CC4=O)cc(N[C@H]3CCOC3)c2c(=O)[nH]1 | ARPE-19 | cell growth or viability, MTS | 48 h | ~0.458 µM and 0.458 µM |
| Cc1ccc(C(=O)C2Sc3nnc(-n4nc(C)cc4C)n3NC2c2ccc(Cl)cc2)cc1 (racemic) | CAPAN-1 | cell growth or viability, imaging | 72 h | > 100 µM |
| CN1CCN(CCN2CCCN(c3ccc(Oc4ccc(F)cc4F)c(-c4cn(C)c(=O)c5[nH]ccc45)c3)S2(=O)=O)CC1 | Light II cells | GLI reporter gene, inhibitor | Hedgehog pathway | 0.0394 ± 0.00476 µM |
| CC(C)Cc1ccc(C(C)C(=O)[O][Pt]([NH2])([NH2])([Cl])([Cl])[O]C(=O)C(Cl)Cl)cc1 (centres unmarked) | PSN1 3D spheroids | – | – | 5.25 ± 0.71 µM |
| C#CCN(CC(=O)O[C@H]1[C@H](C)O[C@@H](O[C@H]2[C@H](N(C)C)[C@@H](O)[C@H](O[C@H]3[C@@H](CC=O)C[C@@H](C)[C@@H](O[C@H]4CC[C@H](N(C)C)[C@@H](C)O4)/C=C/C=C/C[C@@H](C)OC(=O)C[C@@H](O)[C@@H]3OC)O[C@@H]2C)C[C@@]1(C)O)Cc1ccc(C(F)(F)F)cc1 | HGC-27 | cell growth or viability, CCK-8 | 72 h | 1.2 µM |
| CCC(C(=O)O)C1CCC(C)C(C(C)C(O)C(C)C(=O)C(CC)C2OC3(C=CC(NCc4cn(CCOCCOCCOC)nn4)C4(CCC(C)(C5CCC(O)(CC)C(C)O5)O4)O3)C(C)CC2C)O1 (centres unmarked) | HMLER CD24high/CD44low | cell viability, CellTiter-Blue | 72 h | 25.3 ± 2.8 µM |
| CO[C@@H]1[C@@H](O[C@@H]2O[C@H](C)[C@@H](O[C@H]3C[C@@](C)(O)[C@@H](OC(=O)C4CCCCC4)[C@H](C)O3)[C@H](N(C)C)[C@H]2O)[C@@H](CC=O)C[C@@H](C)[C@@H](O[C@H]2CC[C@H](N(C)C)[C@@H](C)O2)/C=C/C=C/C[C@@H](C)OC(=O)C[C@H]1O | HGC-27 | cell growth or viability, CCK-8 | 72 h | 4.27 µM |
| Cc1ccc(C(C)C)cc1.Cc1ncc(CO)c(C=NNC2=Nc3ccccc3-c3[nH]c4ccc(Br)cc4c3C2)c1O.[Cl-].[Cl][Os+] | LNCaP | cell growth or viability, MTT | 96 h | 16 µM |
| Cc1ccc(C(C)C)c(OCc2ccc(C(=O)N/N=C/c3cccc(O)c3O)cc2)c1 | LDR | cell viability, MTS | 4 days | 1.5 µM |
| C[C@]12CC/C(=N/O)C=C1CCC1C2CC[C@]2(C)/C(=C/c3ccccn3)CCC12 (some centres unmarked) | G-361 | cell growth or viability, resazurin | 72 h | 46.6 µM |
| CCCCC(CC)CNC(=N)NC(=N)NCCCCCCCCNC(=N)NC(=N)NCC(CC)CCCC (centres unmarked) | NCI-H1299 | cell growth or viability | 72 h | 3.7 µM |
| NC(=S)c1ccc(O)cc1 | K562/Adr | cell growth or viability, CCK-8 | 72 h | > 200 µM |
| CO[C@@H]1[C@@H](O[C@@H]2O[C@H](C)[C@@H](O[C@H]3C[C@@](C)(O)[C@@H](OC(=O)c4ccc(C(C)(C)C)cc4)[C@H](C)O3)[C@H](N(C)C)[C@H]2O)[C@@H](CC=O)C[C@@H](C)[C@@H](O[C@H]2CC[C@H](N(C)C)[C@@H](C)O2)/C=C/C=C/C[C@@H](C)OC(=O)C[C@H]1O | HGC-27 | cell growth or viability, CCK-8 | 72 h | 2.31 µM |
| N[C@@H](CCC(=O)N[C@@H](CS[Se]Cc1ccc(-c2cc(C(F)(F)F)nn2-c2ccc(S(N)(=O)=O)cc2)cc1)C(=O)NCC(=O)O)C(=O)O | 1205 Lu melanoma cells | cell viability, MTS | 72 h | 10.6 ± 2.6 µM |
| CN(C)c1cc[n+](Cc2cccc(C[n+]3ccc(N(C)C)cc3)c2)cc1 | 3T3-L1 | cell viability, MTT | 72 h | 61.96 ± 0.52 µM |

| SMILES | cell line | test | conditions | IC50 |
| --- | --- | --- | --- | --- |
| [Cl][Au].[Se]=c1n(C23CC4CC(CC(C4)C2)C3)ccn1C12CC3CC(CC(C3)C1)C2 | A-431 | cell growth or viability, MTT | 72 h | 3.3 µM |
| CC(=O)Oc1ccc(/C=C/C(=O)Nc2nc(=O)n([C@@H]3O[C@H](C)[C@@H](OC(C)=O)[C@H]3OC(C)=O)cc2F)cc1OC(C)=O | AsPC-1 | cell viability, MTT | 72 h | 90.1 µM and 90 µM |
| N=C(N)NCCC[C@H](N)C(=O)N[C@H](CC(=O)N[C@@H](CC(=O)O)C(=O)O)c1cccc2ccccc12 | BT-474 (HER2-overexpressing) | – | – | > 50 µM |
| CN(C)C(CNC(=O)Nc1cc(C(F)(F)F)ccc1N1CCOCC1)c1ccncc1 (centres unmarked) | IMR-90 | cell growth or viability, crystal violet | 48 h | 1000 µM |
| COc1cc2c(cc1C(C)O)CCC1C(C)(C)c3nc(C)ncc3C[C@]21C (mixture of isomers) | TM3 | cell growth or viability, SRB | 24 h | > 100 µM |
| CCC(C(=O)O)C1CCC(C)C(C(C)C(O)C(C)C(=O)C(CC)C2OC3(C=CC(NCc4cn(C56CC7CC(CC(C7)C5)C6)nn4)C4(CCC(C)(C5CCC(O)(CC)C(C)O5)O4)O3)C(C)CC2C)O1 (centres unmarked) | HMLER CD24high/CD44low | cell viability, CellTiter-Blue | 72 h | 0.45 ± 0.05 µM |
| C[N+]1(C)CC[NH2+][Pt-2]1([OH])([Cl])([Cl])[O]C(=O)CCC(=O)OCCO | CH1 | cell growth or viability, MTT | 96 h | 3.4 µM |
| COCCN1CCCN(c2ccc(Oc3ccc(F)cc3F)c(-c3cn(C)c(=O)c4[nH]ccc34)c2)S1(=O)=O | Light II cells | GLI reporter gene, inhibitor | Hedgehog pathway | 0.0339 ± 0.0111 µM |
| CO[C@@H]1[C@@H](O[C@@H]2O[C@H](C)[C@@H](O[C@H]3C[C@@](C)(O)[C@@H](OC(=O)Nc4ccc(C)cc4)[C@H](C)O3)[C@H](N(C)C)[C@H]2O)[C@@H](CC=O)C[C@@H](C)[C@@H](O[C@H]2CC[C@H](N(C)C)[C@@H](C)O2)/C=C/C=C/C[C@@H](C)OC(=O)C[C@H]1O | HGC-27 | cell growth or viability, CCK-8 | 72 h | 1.26 µM |
| CC(C)=CCC1=C([O-])C(=O)c2ccccc2C1=O.CC(C)=CCC1=C([O-])C(=O)c2ccccc2C1=O.[Cu+2].c1ccc(-c2ccccn2)nc1 | A2780 | cell viability, MTT | 48 h | 1 ± 0.3 µM |
| CCCCC(CC)CNC(=N)NC(=N)NCCCCNC(=N)NC(=N)NCC(CC)CCCC (centres unmarked) | NCI-H1299 | cell growth or viability, SRB | 72 h | 2 µM |
| COc1cc(CN2CC3CC(CCN(C[C@H]4O[C@@H](n5cnc6c(N)ncnc65)[C@H](O)[C@@H]4O)C(C)C)CC3C2)cc(OC)c1OC (some centres unmarked) | H460 R231Q | cell proliferation, CCK-8 | 72 h | > 100 µM |
| N=C(N/N=C/c1cc(C(F)(F)F)cc(C(F)(F)F)c1)N/N=C/c1cc(C(F)(F)F)cc(C(F)(F)F)c1 | IMR-90 | cell growth or viability, crystal violet | 72 h | 197 µM |
| CCCCCCCCCCCCCCCCOc1c(O)cc(C(=O)O[C@@H]2Cc3c(O)cc(O)cc3O[C@@H]2c2cc(O)c(O)c(O)c2)cc1O | A-431 | cell growth or viability, CCK-8 | 24 h | 84.9 µM |
| CCCCCCCCC=CCCCCCCCC(=O)OCC1OC(n2ccc(N)nc2=O)C(F)(F)C1O (centres unmarked) | LOX | cell growth | together with: NBMPR 100 µM | 0.027 ± 0.0006 µM |
| COc1cc(NC(=O)c2ccc(Cl)cc2Cl)ccc1C(=O)Nc1ccc(Cl)c(-c2nc3ccccc3[nH]2)c1 | NIH3T3-Gli-Luc | Hedgehog signalling, Gli-luciferase reporter | together with: Shh-conditioned medium | 0.53 ± 0.05 µM |
| COC(=O)[C@@H]1[C@@H](OC)[C@H](OC(=O)c2cc(OC)c(OC)c(OC)c2)C[C@@H]2CN3CC[C@]4(O[C@@H]3C(=O)[C@@H]21)C(=O)Nc1cc(OC)ccc14 | CAPAN-1 | cell growth or viability, crystal violet | 72 h | 23 µM |
| C[O][Pt-2]1([Cl])([Cl])([O]C(=O)CCC(=O)O)[NH2+]CC[N+]1(C)C | CH1 | cell growth or viability, MTT | 96 h | 12 µM |
| N=C(S)N/N=C/c1ncc(C(F)(F)F)cc1Cl | LDR | cell viability, MTS | 4 days | 12 µM |
| CC(=O)[O-].Nc1ccc(C([O-])=NN=Cc2ccc(OCC(=O)Nc3ccc(Cl)cc3)cc2)cc1.O.O.O.[Co+2] | WISH | cell growth or viability, MTT | 24 h | 31 µg/mL |
| CCCC(=O)N1CCN(c2ccc(NC(=O)c3ccc([N+](=O)[O-])o3)cc2Cl)CC1 | LDR | cell viability, MTS | 4 days | 1 µM |
| O=C(Cc1ccc2ccccc2c1)N[C@H](Cc1ccccc1)C(=O)N[C@H](Cc1ccc(OP(=O)(O)O)cc1)C(=O)N[C@H](Cc1ccccc1)C(=O)N[C@H](Cc1ccc(OP(=O)(O)O)cc1)C(=O)O | HS5 | cell growth or viability, MTT | – | > 483 µg/mL |

A few entries again:
| SMILES | cell line | test | conditions | IC50 |
| --- | --- | --- | --- | --- |
| [Cl][Au].[Se]=c1n(C23CC4CC(CC(C4)C2)C3)ccn1C12CC3CC(CC(C3)C1)C2 | A-431 | cell growth or viability, MTT | 72 h | 3.3 µM |
| CC(=O)Oc1ccc(/C=C/C(=O)Nc2nc(=O)n([C@@H]3O[C@H](C)[C@@H](OC(C)=O)[C@H]3OC(C)=O)cc2F)cc1OC(C)=O | AsPC-1 | cell viability, MTT | 72 h | 90.1 µM and 90 µM |
| N=C(N)NCCC[C@H](N)C(=O)N[C@H](CC(=O)N[C@@H](CC(=O)O)C(=O)O)c1cccc2ccccc12 | BT-474 (HER2-overexpressing) | – | – | > 50 µM |
| CN(C)C(CNC(=O)Nc1cc(C(F)(F)F)ccc1N1CCOCC1)c1ccncc1 (centres unmarked) | IMR-90 | cell growth or viability, crystal violet | 48 h | 1000 µM |
| COc1cc2c(cc1C(C)O)CCC1C(C)(C)c3nc(C)ncc3C[C@]21C (mixture of isomers) | TM3 | cell growth or viability, SRB | 24 h | > 100 µM |
